Published values of several laboratories.
A part holds a random share of what one study measured.

Study 1
Target: Interferon regulatory factor 5, full length, phosphomimetic (IRF5, Homo sapiens, UniProt Q13568-2, residues 1-514, S451D/S453D/S456D/S462D)
Technique: protein-binding microarray
Molecule type: double-stranded DNA, one strand shown
Medium: in vitro
Concentration: 940 nM top
Notes: 60-bp whole probe
Added: salmon DNA 0.4 mg/ml
Relative to: random background probes
Reading: higher = stronger binding
Constant ends, left off below: GCCTAGCAC … GTCTTGATTCGCTTGACGCTGCTG
For `TTAGATTTCAGTTTCAATTAGTGCTAG`, “fitted relative affinity” read 3.57 z-score.
`TCAGGTCTCCTTTTCCTTTAGTGCTAG`: “fitted relative affinity” 0.809 z-score.
For `GACGAGTTCAGTTTCGAGACGTGCTAG`, “fitted relative affinity” read 5.16 z-score.
`GACCATATCAGTCTCGAGACGTGCTAG`: “fitted relative affinity” 1.6 z-score.
Under “fitted relative affinity”, `TTAGAACTGGGGTTTCGATTCGTGCTA` is recorded as 4.75 z-score.
For `GACAGTATCGGGTATCGGGACGTGCTA`, “fitted relative affinity” read 5.75 z-score.
`TGAGGTATCGGGTATCGGTTAGTGCTA` — result for “fitted relative affinity”: 5.52 z-score.
`TTAGGTTTCCTTCTCCCTTAGTGCTAG` — result for “fitted relative affinity”: 2.2 z-score.
Under “fitted relative affinity”, `TTAGGACTGGGTCTCGGTTGGTGCTAG` is recorded as 0.999 z-score.
`TCAAATTAGTGTTTTGCACTGTGCTAG` — result for “fitted relative affinity”: -0.283 z-score.
Under “fitted relative affinity”, `GACGATCTCAGTTTCGAGCCGTGCTAG` is recorded as 3.23 z-score.
`TTAGGATTGCTTCTCCTTTAGTGCTAG`: “fitted relative affinity” -0.265 z-score.
Under “fitted relative affinity”, `CTCTACATGGGTATAGAGTAGTGCTAG` is recorded as -0.63 z-score.
`GACGGACTGGACTTTCGGTACGTGCTA`: “fitted relative affinity” 2.12 z-score.
`GAAGGTCTCGGTTTCGGGACGTGCTAG` — result for “fitted relative affinity”: 4.91 z-score.
`TTGCTTCCCAATTCTCTTTTCGTGCTA`: “fitted relative affinity” 1.71 z-score.
For `TTAGGTATCGGTACTGGGTTAGTGCTA`, “fitted relative affinity” read 8.78 z-score.
`GTCGGTATCGACTTTCGGGACGTGCTA` — result for “fitted relative affinity”: 5.62 z-score.
`GCCGGTTTCCTTTCCCTGACGTGCTAG` — result for “fitted relative affinity”: 2.19 z-score.
For `CACGGACTGGGGTATCGGGACGTGCTA`, “fitted relative affinity” read 0.374 z-score.

Study 2
Target: Histone acetyltransferase KAT6A, winged helix 2, GST fusion (KAT6A, Homo sapiens, UniProt Q92794, residues 85-181)
Technique: protein binding microarray
Molecule type: double-stranded DNA, one strand shown
Medium: in vitro
Concentration: not given
Notes: 8-mer, flanks averaged, mean of 2 arrays, mostly near background
Relative to: not given
Reading: higher = stronger binding
Residues (chain): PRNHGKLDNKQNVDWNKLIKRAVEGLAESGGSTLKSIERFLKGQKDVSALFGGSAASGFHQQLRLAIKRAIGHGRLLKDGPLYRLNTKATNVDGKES
`ACTGGGAC` gave an E-score of 0.0108.
For `CGTGAGCC`, the E-score was -0.0366.
`GAACCAGC` gave an E-score of 0.123.
`CTATGGAA` gave an E-score of -0.0678.
The E-score of `ATGACGAG` is reported as 0.0708.
With `AGGCAGAG` the E-score was 0.108.
`CTAACACC` gave an E-score of -0.108.
`TCGGTCAA` gave an E-score of -0.145.
With `CATCATCA` the E-score was 0.0184.
The E-score of `GGGCAGGA` is reported as 0.152.
The E-score of `GGAAGACA` is reported as 0.169.
For `CCTCTAGC`, the E-score was -0.083.
The E-score of `AGGCTGGA` is reported as -0.0441.
The E-score of `ATGCTAGA` is reported as 0.0423.
For `CGTACGGC`, the E-score was -0.0704.
For `TAGCATCA`, the E-score was 0.0879.
With `GTCCAGTA` the E-score was -0.206.
For `AACACAGC`, the E-score was 0.058.

Study 3
Target: RNA binding protein fox-1 homolog 2, RRM domain, GST-SBP tag (RBFOX2, Homo sapiens, UniProt O43251-10, residues 100-194)
Technique: RNA Bind-n-Seq
Molecule type: RNA
Medium: in vitro
Concentration: 365 nM
Notes: natural RNA segment, single round, ends assumed
Relative to: no-protein control
Reading: higher = stronger binding
Residues (chain): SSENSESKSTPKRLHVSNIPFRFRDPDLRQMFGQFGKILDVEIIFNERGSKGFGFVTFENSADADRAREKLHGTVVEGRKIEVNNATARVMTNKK
Under “RBNS enrichment (R)”, `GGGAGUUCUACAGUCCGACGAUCAGAUCAUUGGUGACAUUCUUCAGUUAUCAUUAUACUUUGCCGAAUUCUAUCACAGCACAGCAGGUCGAGAGUUAACACCUGGAUGACAUGGUGGUGGAUAUUUGGGUCUGUGGAAUUCUCGGGUGCCAA` is recorded as 0.419.
Under “RBNS enrichment (R)”, `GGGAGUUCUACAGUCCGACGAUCGCUUUGGGUUUGAAGGGCAAGGGUGGCUGUGAACCACCCCCACCCAGCCGUCAGGCCCGCUUCGUCGUCAUCUCUAUCUCCCUGCUCCCUGGCCCUGAGGGUUUGGAAUCUGGAAUUCUCGGGUGCCAA` is recorded as 0.236.
`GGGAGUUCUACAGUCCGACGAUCAAAAUAAAGCUAAUUUUAGGAAGAUAAACCCUAUGUGGGCUUGCUUGUACAUCUGACUGUGGCUGCUCAGCUCUGUUUUGAGAAGGAAAGGGGCCAUCCUUUCUGUGAGCUGGAAUUCUCGGGUGCCAA` — result for “RBNS enrichment (R)”: 0.376.
Under “RBNS enrichment (R)”, `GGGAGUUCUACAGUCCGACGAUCCAGACCUUACUGCUACUGCUGCUGCCAUUAAUGCUGUGCUCACUAUCUUGUCCAGGAUUUUAAGGAUGUCAGACUGCUGUAGAUGACUCAAUAAAUGUUUUGCCAUUUUUUGGAAUUCUCGGGUGCCAA` is recorded as 0.592.
`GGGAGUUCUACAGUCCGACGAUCCCCAGGAAUGCCGUGAAAGGAGACAAGGUCUGCCCGACCCAUGUCUAUGCUCUACCCCCAGGGUAGCAUCUCAGCUUCCGAACCCUGGGCUGUUUCCUUAGUCUUCAUUUUGGAAUUCUCGGGUGCCAA`: “RBNS enrichment (R)” 1.4.
Under “RBNS enrichment (R)”, `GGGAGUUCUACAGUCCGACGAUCUGAGCCCCUUACCCAUAGGGUUGGGGGUGGGAAGAGAAGCAUAUUUUUUUGCCAUUCCGGAAGCAAUCCAUUUUUAUUCACUUGUGUGUCAUGUAAUGGUCUUUGGCAGGUGGAAUUCUCGGGUGCCAA` is recorded as 0.297.
For `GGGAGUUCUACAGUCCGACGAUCUCAUGGUGUGAGAUGUGAAUAAUUGCACAUGGUUUUGAGAACAGGAACUGUAAAUCUGUUGCCCAAUCUUAACAUUUUUGAGCUGCAUUUAAGUAGACUUUGGACCGUUAUGGAAUUCUCGGGUGCCAA`, “RBNS enrichment (R)” read 0.458.
Under “RBNS enrichment (R)”, `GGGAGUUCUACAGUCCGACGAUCCUUGACAUGCUGGUCUGGGGAGAGACAGGGCCUCUGCUGCCCUGUUCUUCACCCUCACAGUGAUACCUCCUUUCCUUGGGUCUCUUGGCCUCCAGACCCCCUCAAUAGACUGGAAUUCUCGGGUGCCAA` is recorded as 0.393.
`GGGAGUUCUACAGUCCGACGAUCAGUUUGGCAUUUUUUGUCGUUUGUGCACAUAACUUGGUGUUAUCCUUAUGUCAUCAGAUUCCUCCUAGGGGAGAGUUUUUGUUUUAAUUACAAAAUUAAAUUCUACAUUGUGGAAUUCUCGGGUGCCAA` — result for “RBNS enrichment (R)”: 0.612.
For `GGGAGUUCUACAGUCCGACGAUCUUUAAGUUUUGUAACACUGUCCUACUUUAUUUAUUAGAAUCUAAGGCUGUUACAAUCAAGUCGUUGCAGGGUUUGGAUCAGCUGUAAGUUAGGUAUGCCUACCAAACAUCUGGAAUUCUCGGGUGCCAA`, “RBNS enrichment (R)” read 0.342.
`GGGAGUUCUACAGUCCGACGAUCCUUCCCUGCCUCCAGGUCAGGGAGCAGCUGCAGUGAGGGUGGGGAGGUGAGGGCUUUGUACACGUGUGUCCUCUGCUGUCAUGAACUUGGGCUGGACUGUGAGCAGCUCUUGGAAUUCUCGGGUGCCAA`: “RBNS enrichment (R)” 0.852.
`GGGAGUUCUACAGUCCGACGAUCCCUGUGUGGCCAGCAGAGGAAGCCUUGAGGAUAGAUCUCGGGUGACGUGGGAUUUUCUAAGCCUGAGAGGUGUCCUUCUGCACACCCUUGUAACAAUUAAAAUUGCUUUUUGGAAUUCUCGGGUGCCAA` — result for “RBNS enrichment (R)”: 0.542.

Study 4
Target: Prothrombin, mature alpha-thrombin (F2, Homo sapiens, UniProt P00734)
Technique: aptamer microarray, sandwich
Molecule type: DNA with 2'F-ANA
Medium: in vitro
Concentration: 200 nM
Notes: whole 15-mer aptamer, many near background
Added: Cy3 exosite-II aptamer, 400 nM
Reading: higher = stronger binding
Strand: GGTTGGTGTGGTTGG
`2'F-ANA at 1 2 3 4 5 8 9 10 14` — result for “mean fluorescence intensity”: 48 a.u.
`2'F-ANA at 1 6 8 10 11 13 14`: “mean fluorescence intensity” 49 a.u.
`2'F-ANA at 2 3 4 8 10 15`: “mean fluorescence intensity” 258 a.u.
`2'F-ANA at 2 4 6 8 12 14` — result for “mean fluorescence intensity”: 142 a.u.
Under “mean fluorescence intensity”, `2'F-ANA at 2 3 6 8 10 13` is recorded as 372 a.u.
`2'F-ANA at 5 6 11 12 13` — result for “mean fluorescence intensity”: 99.9 a.u.
`2'F-ANA at 1 3 5 6 7 8 11 13` — result for “mean fluorescence intensity”: 52.7 a.u.
For `2'F-ANA at 2 4 5 8 9 10 12 13 15`, “mean fluorescence intensity” read 48.9 a.u.
`2'F-ANA at 1 3 4 6 7 8 11 12 13` — result for “mean fluorescence intensity”: 242 a.u.
`2'F-ANA at 1 2 5 6 7 8 10 11 13 14 15` — result for “mean fluorescence intensity”: 50.7 a.u.
`2'F-ANA at 5 6 14 15`: “mean fluorescence intensity” 45.7 a.u.
`2'F-ANA at 1 2 3 9 10 11 12 13`: “mean fluorescence intensity” 78.9 a.u.
`2'F-ANA at 1 2 3 5 6 7 11 13 14` — result for “mean fluorescence intensity”: 51.4 a.u.
Under “mean fluorescence intensity”, `2'F-ANA at 1 7 9 10 12 13 14` is recorded as 47.7 a.u.
`2'F-ANA at 1 2 4 7 12 14`: “mean fluorescence intensity” 89 a.u.
Under “mean fluorescence intensity”, `2'F-ANA at 2 4 5 6 7 8 10 13 14 15` is recorded as 53 a.u.
Under “mean fluorescence intensity”, `2'F-ANA at 6 7 8 10` is recorded as 181 a.u.
For `2'F-ANA at 1 5 6 9 10 15`, “mean fluorescence intensity” read 55.7 a.u.
`2'F-ANA at 2 4 5 9 10 12`: “mean fluorescence intensity” 51.6 a.u.
Under “mean fluorescence intensity”, `2'F-ANA at 1 2 3 4 6 7 8 9 10 13 14` is recorded as 50.6 a.u.
`2'F-ANA at 6 7 9 11 13 14 15`: “mean fluorescence intensity” 155 a.u.

Excerpt of the above (study 1):
`GACGGACTGGACTTTCGGTACGTGCTA`: “fitted relative affinity” 2.12 z-score.
For `TTAGGTATCGGTACTGGGTTAGTGCTA`, “fitted relative affinity” read 8.78 z-score.
`TTAGGTTTCCTTCTCCCTTAGTGCTAG` — result for “fitted relative affinity”: 2.2 z-score.
For `GACGAGTTCAGTTTCGAGACGTGCTAG`, “fitted relative affinity” read 5.16 z-score.
`TTAGGATTGCTTCTCCTTTAGTGCTAG`: “fitted relative affinity” -0.265 z-score.
